Results from different studies.
Lines come from different studies, so protocols differ. “And” joins repeats or separate records; there may be more than shown. Numbers after ± are the reported error.
TDP1: Tyrosyl-DNA phosphodiesterase 1 (TDP1, Homo sapiens, UniProt Q9NUW8)
Chain of UniProt Q9NUW8 (whole entry, looked up): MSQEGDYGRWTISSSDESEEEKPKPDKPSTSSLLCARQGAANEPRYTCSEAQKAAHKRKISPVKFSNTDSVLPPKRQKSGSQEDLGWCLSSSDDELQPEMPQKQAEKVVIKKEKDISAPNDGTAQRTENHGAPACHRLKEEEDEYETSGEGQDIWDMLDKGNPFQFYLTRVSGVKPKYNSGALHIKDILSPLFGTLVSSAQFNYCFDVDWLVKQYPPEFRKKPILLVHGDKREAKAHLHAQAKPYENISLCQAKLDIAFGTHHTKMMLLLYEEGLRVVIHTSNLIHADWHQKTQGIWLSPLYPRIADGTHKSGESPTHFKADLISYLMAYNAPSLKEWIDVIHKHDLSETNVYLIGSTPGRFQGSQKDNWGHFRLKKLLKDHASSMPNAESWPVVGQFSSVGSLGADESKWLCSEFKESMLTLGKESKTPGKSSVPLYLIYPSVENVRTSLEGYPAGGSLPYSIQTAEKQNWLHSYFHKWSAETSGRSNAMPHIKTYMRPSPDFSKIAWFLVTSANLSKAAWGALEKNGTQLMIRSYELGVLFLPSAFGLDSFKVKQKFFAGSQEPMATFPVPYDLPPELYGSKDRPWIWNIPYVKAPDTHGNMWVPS

| SMILES | tested on | test | test system | conditions | scale | endpoint | result |
| --- | --- | --- | --- | --- | --- | --- | --- |
| N#CCCn1cc(C=NOCc2ccc(-c3nc4cc(-c5ccccc5)ccn4c3Nc3ccc(C(=O)O)cc3)cc2)c(-c2cccc(Br)c2)n1 (mixture of isomers) | TDP1 | enzyme activity, inhibitor |  | 100 µM, unpurified compound |  | inhibition | 47.4% |
| O=C1C2CC3CC1CC(C(=O)N1CCN(c4ccc([N+](=O)[O-])c5ncccc45)CC1)(C3)C2 | Salmonella typhimurium | Ames test | TA98 | 0.31 µg/well, without S9 |  | mean revertant colonies | 6 colonies/well |
| CC(C)OCCOCc1ccc(OCC(O)CN(N=O)C(C)C)cc1 (centres unmarked) | Escherichia coli | Ames test | WP2 uvrA | 158 µg/plate, 30 % rat S9 | reference: solvent control | revertant fold increase | 0.9 fold |
| COC(=O)Nc1nc2cc(C(O)c3ccc(F)cc3)ccc2[nH]1 (centres unmarked) | Salmonella typhimurium | Ames preincubation test | TA1535 | 54.7 µg/plate, without S9 |  | revertants | 20.3 revertants/plate |
| CCN(CC)CC#CCNc1ccnc2cc(Cl)ccc12 | Salmonella typhimurium | mini-Ames test | TA97a | 250.0 µg/well, with rat liver S9 |  | revertants per well | 1 |
| Cn1nc(COC(=O)c2ccccc2)c(=O)c2c(=O)[nH]c(N)nc21 | Escherichia coli | LC-MS/MS | BW25113 | 100 µM, 10 min, 37 °C |  | intracellular accumulation | < 0.78 µM |
| Nc1nc2cc(C(=O)c3ccc(F)cc3)ccc2[nH]1 | Escherichia coli | Ames preincubation test | WP2 uvrA | 78.0 µg/plate, without S9 |  | revertants | 45.3 revertants/plate |
| Cn1nc(CNc2nnn[nH]2)c(=O)c2c(=O)[nH]c(N)nc21 | Escherichia coli | LC-MS/MS | BW25113 | 100 µM, 10 min, 37 °C |  | intracellular accumulation | 5.67 ± 0.2 µM |
| O=C1NC2(CC2)COc2ncc(F)cc2[C@H]2COCCN2c2ccn3ncc1c3n2 | Salmonella typhimurium | Ames test | TA102 | 5000 µg/plate, 48 h, with: rat liver S9 |  | revertant colonies | 395 ± 11 revertants/plate |
| Nc1nc2[nH]nc(CC(=O)O)c(=O)c2c(=O)[nH]1 | Escherichia coli | LC-MS/MS | BW25113 | 100 µM, 10 min, 37 °C |  | intracellular accumulation | 1.84 µM |
| O=C(O)CCCOc1ccc(O)cc1-c1cc(-c2ccccc2C(F)(F)F)n(-c2ccccc2)n1 | Escherichia coli | Ames test | WP2 uvrA | concentration not given, without metabolic activation |  | growth inhibitory concentration | 5000 µg/plate |
| CC(C(=O)O)c1n[nH]c2nc(N)[nH]c(=O)c2c1=O (centres unmarked) | Escherichia coli | LC-MS/MS | BW25113 | 100 µM, 10 min, 37 °C |  | intracellular accumulation | 0.49 ± 0.2 µM |
| CC(C)(C)NCC(SS(=O)(=O)O)c1ccccc1 (centres unmarked) | Schistosoma mansoni | perfusion day 35 | infected Swiss Webster mice | 100 mg/kg |  | body weight | 24.8 g and 25.9 g and 28.1 g |
| O=C(O)c1ccc(Nc2c(-c3ccccc3)nc3ccc(CON=CC4=C5NC(=O)c6ccccc6N5CC4)cn23)cc1 | TDP1 | enzyme activity, inhibitor |  | 100 µM, unpurified compound |  | inhibition | 29.7% |

Excerpt of the above:
| SMILES | tested on | test | test system | conditions | scale | endpoint | result |
| --- | --- | --- | --- | --- | --- | --- | --- |
| CC(C)(C)NCC(SS(=O)(=O)O)c1ccccc1 (centres unmarked) | Schistosoma mansoni | perfusion day 35 | infected Swiss Webster mice | 100 mg/kg |  | body weight | 24.8 g and 25.9 g and 28.1 g |
| CC(C)OCCOCc1ccc(OCC(O)CN(N=O)C(C)C)cc1 (centres unmarked) | Escherichia coli | Ames test | WP2 uvrA | 158 µg/plate, 30 % rat S9 | reference: solvent control | revertant fold increase | 0.9 fold |
